Assay results gathered from unrelated publications.
Compare with care: the assays were run in different laboratories. Numbers after ± are the reported error.

For `Cn1c[n+]([C@@H]2O[C@H](COP(=O)(O)OP(=O)([O-])OP(=O)(O)OC[C@H]3O[C@@H](n4cnc5c(=O)[nH]c(N)nc54)[C@H](O)[C@@H]3O)[C@@H](O)[C@H]2O)c2nc(N)[nH]c(=O)c21`, the IC50 was 13.9 ± 0.6 µM (cap-dependent translation, inhibitor; rabbit reticulocyte lysate).
The IC50 of `Nc1ncnc2c1ncn2[C@@H]1O[C@H](C[C@@H](N)CC[C@H](N)C(=O)O)[C@@H](O)[C@H]1O` is reported as 51 ± 6 µM (DNA methyltransferase activity, Flashplate; K562 nuclear extract; together with: hemimethylated DNA 1 µM, [3H]SAM).
`COc1c(Cl)c(C)c(C=O)c(O)c1C/C=C(C)/C=C/[C@@]1(C)[C@H](C)CCC(=O)[C@@H]1C` gave an IC50 of 0.12 µM (succinate-dependent oxygen uptake, inhibitor; rat liver mitochondria; together with: succinate 15 mM).
`COC(=O)C[C@](O)(CCCC(C)(C)O)C(=O)O[C@@H]1C(OC)=C[C@]23CCCN2CCc2cc4c(cc2[C@H]13)OCO4` has an IC50 of about 0.5 µM (translation, inhibitor, refers to: firefly luciferase reporter; Krebs-2 cell lysate).
`protein S (human)` has an IC50 of 0.16 µM (FXa-induced clotting; human protein S-depleted plasma; 37 °C, no exogenous phospholipid).
The IC50 of `C/C=C(C)/C=C/C=C/[C@H](OC)[C@@H](C)[C@@H](OC)[C@@H](C)CCc1oc2c(O)c(OC)cc(OC)c2c(=O)c1C` is reported as 0.014 µM (succinate-dependent oxygen uptake, inhibitor; rat liver mitochondria; together with: succinate 15 mM).
`Cc1ccnn1-c1cccc(NC(=O)CC2OC(=O)c3ccccc32)c1` (centres unmarked) has an IC50 of 530 µM (classical complement MAC deposition, ELISA; human serum 1%; saturable inhibition not reached).
The IC50 of `glutathione` is reported as under 15 µg/mL (superoxide radical scavenging; 4 min, pH 8.3).
`O=C1O[C@H]([C@@H](O)CO)C(O)=C1O` gave an IC50 of 16.3 ± 0.21 µM (DPPH radical scavenging).
For `COC(=O)c1c2nc(c(C(F)(F)F)c3ccc([n-]3)c(C(=O)OC)c3nc(c(C(F)(F)F)c4ccc1[n-]4)C=C3)C=C2.[Cl-].[Mn+3]`, the IC50 was 0.2 µM (lipid peroxidation, TBARS; rat brain homogenate; together with: iron(II)/ascorbate).
With `NS(=O)(=O)c1ccc(NC(=O)/C=C\c2ccc(O)c(O)c2)cc1` the IC50 was 50.3 µM (DPPH radical scavenging; ethanol; 30 min).
With `CC(=CCc1c(O)cc(C)c(C=O)c1O)CCC1(C)C(C)CCC(=O)C1C` (centres unmarked) the IC50 was 3.84 µM (succinate-dependent oxygen uptake, inhibitor; rat liver mitochondria; together with: succinate 15 mM).
The IC50 of `Cc1c(CN2CCN(C(=O)[C@H](C)O)CC2)sc2c(N3CCOCC3)nc(-c3cnc(N)nc3)nc12` is reported as 0.00403 to 0.0261 µg/mL (refers to: pAkt; patients with advanced solid tumours, platelet-rich plasma; individual estimates range, PK-PD model).
For `CC12CCC(CC1=O)C2(C)C` (centres unmarked), the IC50 was over 2630 µM (DPPH radical scavenging; 15 min).
With `O=C1O[C@H]([C@@H](O)CO)C(O)=C1O` the IC50 was 91 µM (DPPH radical scavenging; ethanol; 30 min).
With `NC[C@H]1O[C@H](O[C@H]2[C@H](O)[C@@H](O[C@H]3O[C@H](CO)[C@@H](O)[C@H](N)[C@H]3O)[C@H](N)C[C@@H]2N)[C@H](N)C[C@@H]1O` the IC50 was 0.0089 ± 0.0019 µM (luciferase reporter translation; Escherichia coli cell lysate).
With `O=C(/C=C\c1ccc(O)c(O)c1)Nc1ccc(S(=O)(=O)Nc2ncccn2)cc1` the IC50 was 45.6 µM (DPPH radical scavenging; ethanol; 30 min).
With `O=C1O[C@H]([C@@H](O)CO)C(O)=C1O` the IC50 was 41 ± 3.1 µM (H2O2 scavenging).
`NC[C@@H]1O[C@H](O[C@H]2[C@@H](O)[C@H](O[C@@H]3[C@@H](O)[C@H](N)C[C@H](N)[C@H]3O[C@H]3O[C@H](CO)[C@@H](O)[C@H](O)[C@H]3N)O[C@@H]2CO)[C@H](N)[C@@H](O)[C@@H]1O` has an IC50 of 0.9 µM ([14C]-phenylalanine incorporation, inhibitor, (UUU)12-directed cell-free translation; Mycolicibacterium smegmatis wild-type 70S ribosomes; 60 min, 37 °C).
`Cc1cc(-c2ccnc(Nc3cnn(C)c3)n2)ccc1CNC(=O)N1CC(OC(C)C)C1` has an IC50 of 2 µM (basophil degranulation, refers to: CD63; human whole blood; together with: FcεR stimulation).
For `neomycin`, the IC50 was 0.4 µM (phenylalanine incorporation, poly(U)-directed cell-free translation; Mycolicibacterium smegmatis wild-type 70S ribosomes; 60 min, 37 °C).
`O=C(O)/C=C/c1ccc(O)c(O)c1` gave an IC50 of 40.9 µM (DPPH radical scavenging; ethanol; 30 min).
With `CC(C)CCC[C@@H](C)[C@H]1CC[C@H]2[C@@H]3CC=C4C[C@@H](O)CC[C@]4(C)[C@H]3CC[C@]12C` the IC50 was 99 ± 20 µM (cap-dependent translation; rabbit reticulocyte lysate; 1 h preincubation, together with: capped luciferase mRNA).

Repeated from above:
With `O=C1O[C@H]([C@@H](O)CO)C(O)=C1O` the IC50 was 91 µM (DPPH radical scavenging; ethanol; 30 min).
`COC(=O)C[C@](O)(CCCC(C)(C)O)C(=O)O[C@@H]1C(OC)=C[C@]23CCCN2CCc2cc4c(cc2[C@H]13)OCO4` has an IC50 of about 0.5 µM (translation, inhibitor, refers to: firefly luciferase reporter; Krebs-2 cell lysate).
